Measurements pooled from the literature.
Protocols differ between the studies behind these lines. ± gives the spread as reported.

SMILES	test	system	setting	how to read	endpoint	result
CN[C@@H]1COc2c(S(=O)(=O)NC(=O)Nc3c4c(cc5c3CCC5)CCC4)cnn2C1	item: IL-1β	human participants, whole blood ex vivo	1800 mg single dose, 8 h, with: LPS/ATP	reference: baseline	inhibition	99.8%
COCCC(=O)Nc1ccc([C@H]2[C@@H](F)[C@@H](F)C[C@@H](F)[C@H]2F)cc1	liver microsome stability	rat liver microsomes	1 µM	–	hepatic clearance	6.4 mL/min/kg
C[C@H]1C[C@H]2CSC(N)=N[C@@]2(c2nc(NC(=O)c3ccc(OC(F)F)cn3)cs2)CO1	item: total Aβ	healthy adults, plasma	125 mg once daily, day 1	reference: placebo	percent change from baseline	-59.6%
Cc1cn(-c2ccc3n(c2=O)CCN([C@@H](C)[C@@H]2CC[C@H](c4cc(F)c(Cl)cc4C(F)(F)F)O2)C3=O)cn1	item: Aβ42	human, cerebrospinal fluid	300 mg single dose, Tmax	reference: placebo-adjusted baseline	change in CSF level	-38.9%
C=CCn1c(=O)c2cnc(Nc3ccc(N4CCN(C)CC4)cc3)nc2n1-c1ccc2c(n1)[C@@](O)(CC)CC2	–	A-427 xenograft, NOD/SCID mouse	80 mg/kg once daily	–	tumour growth inhibition	133%
CC#Cc1cncc(-c2ccc3c(c2)[C@@]2(N=C(C)C(N)=N2)[C@]2(CC[C@H](OC)CC2)C3)c1	brain Aβ40 reduction, PK/PD model	C57BL/6 mouse	oral, free brain concentration basis	–	IC50	0.6 nM
Cc1[nH]c(/C=C2\C(=O)Nc3ccc(F)cc32)c(C)c1C(=O)NCCN1CCCC1	RECIST	dogs with lung metastatic osteosarcoma	dose not given, single agent	–	clinical benefit rate	17.6%
CCCCOc1nc(N)c2c(n1)N(Cc1cccc(CN3CCCC3)c1)CC(=O)N2	qPCR	human, blood	dose not given, three dosing periods	reference: baseline	ISG15 mRNA level	increased
CCOc1cc([C@@H](CS(C)(=O)=O)N2C(=O)c3cccc(NC(C)=O)c3C2=O)ccc1OC	–	Balb/c mice, oxazolone atopic dermatitis	day 8, unit not given	reference: vehicle	ear thickness difference	-0.0958
CC(=O)Oc1cc2c(s1)CCN(C(C(=O)C1CC1)c1ccccc1F)C2 (stereo not shown)	platelet aggregation, light transmittance aggregometry	human, platelet-rich plasma	15 min, IPA above 80 %, with: TRAP 5 µM	reference: patients	patients with IPA above threshold	0%
N#Cc1ccn2c(-c3ccncc3)c(-c3ccc(F)cc3)nc2c1	kinase binding, competitor, MIB/MS competition, item: RTK1	Candida albicans cell lysate	10 µM	reference: DMSO	log2 fold change	-0.0261
CN(C)C(=O)c1cc2cnc(Nc3ccc(N4CCNCC4)cn3)nc2n1C1CCCC1	RNA-seq GSEA, item: HALLMARK_GLYCOLYSIS	MB002 tumour	concentration not given, in vivo	reference: vehicle, direction not given	normalized enrichment score	1.86
C[C@]12CC[C@@H]3c4ccc(O)cc4CC[C@H]3[C@@H]1CC[C@@H]2O	RT-qPCR, item: CO	Arabidopsis thaliana ING1:FLAG seedlings	dose not given, 6 h (ZT12)	reference: mock	relative mRNA level	0.0129
CCO[C@H]1CCN(Cc2c(OC)cc(C)c3[nH]ccc23)[C@H](c2ccc(C(=O)O)cc2)C1	–	PNH patients, blood	oral, 50 mg then 200 mg, week 2, mean absolute change	reference: baseline	C3d-positive type III RBCs	-0.9%
N#Cc1ccc2c(-c3ccncc3)c(-c3ccc(F)cc3)nn2c1	kinase binding, competitor, MIB/MS competition, item: RCK2	Candida albicans cell lysate	100 nM	reference: DMSO	log2 fold change	-0.0491
CC1(C)CCC(c2ccc(Cl)cc2)=C(CN2CCN(c3ccc(C(=O)NS(=O)(=O)c4ccc(N[C@H](CCN5CCOCC5)CSc5ccccc5)c(S(=O)(=O)C(F)(F)F)c4)cc3)CC2)C1	cell kill, PI exclusion flow cytometry	normal CD3+ T lymphocytes, human, lymph node	24 h	–	EC50	265 nM
NC(=O)c1cnc2[nH]ccc2c1N[C@@H]1[C@@H]2CC3C[C@H]1C[C@@](O)(C3)C2	CD8+ effector memory T cells, flow cytometry	Caucasian humans, peripheral blood	20 mg single dose	reference: baseline	percent change	0.18%
N#Cc1ccc2c(c1)[C@H]1CCCN(C(=O)c3ccc4[nH]cnc4c3)[C@H]1C2	item: HDL	human, Phase II trial	oral, 240 mg once daily, day 28, adjusted mean, SE	–	change from baseline	-0.85 mg/dL
Cc1noc(C)c1-c1cc(C(O)(c2ccccn2)c2ccccn2)c2nc(C3CC3)[nH]c2c1	item: CCR2 expression	human, peripheral blood	9 mg, day 1, 1604 study	–	maximum inhibition	40%

SMILES	test	system	setting	how to read	endpoint	result
COC(=O)[C@H](CC(C)C)NC(=O)[C@@H](O)[C@H](N)Cc1ccccc1	protease activity	HEK-293T cell lysate	10 µM, with: XP-AMC 500 µM	–	cleavage inhibition	no inhibition
Cc1n[nH]c2ccc(-c3cc(OC[C@@H](N)Cc4ccccc4)cnc3-c3ccoc3)cc12	kinase binding, competitor, MIB/MS competition, item: AKL1	Candida albicans cell lysate	1 µM	reference: DMSO	log2 fold change	-1.01
CC(C)C[C@H](NC(=O)[C@@H](Cc1c[nH]c2ccccc12)NC(=O)[C@H](Cc1ccc(O)cc1)NC(=O)[C@H](CO)NC(=O)[C@H](Cc1c[nH]c2ccccc12)NC(=O)[C@H](Cc1c[nH]cn1)NC(=O)[C@@H]1CCC(=O)N1)C(=O)N[C@@H](CCCNC(=N)N)C(=O)N1CCC[C@H]1C(=O)NCC(N)=O	–	Chinese girls, central precocious puberty	intramuscular, 22.5 mg day 1, month 6, month 6, Tanner stage III	–	girls at breast stage	37%
C[C@H](Oc1ccc(Br)cc1-c1ccon1)C(=O)O	relative refractory period	human, tibialis anterior muscle	800 mg, SAD	–	difference from placebo	0.231 ms
O=C(O)CNC(=O)Cc1ccccc1	–	ventricular cardiomyocytes, C57BL/6 mouse	dose not given, 0.548 s	–	sarcomere length	1.62 µm
Cn1cc(Nc2nccc(-c3ccc4c(c3)CN(C3COC3)CC[C@H]4NC(=O)c3cn(C(C)(C)C)nn3)n2)cn1	item: Tec kinase signaling	splenic B cells, mice	30 mg/kg, IgD-activated in vivo	reference: vehicle, direction not given	pathway activation z-score	3.4
OC(CCN1CCCCC1)(c1ccccc1)C1CC2C=CC1C2 (stereo not shown)	resting-state EEG	healthy elderly humans	oral, 2 mg, eyes closed, LS mean	reference: baseline	change in EEG Beta3-power Pz-O2	7.3%
CC(=O)N1CC(C(=O)Nc2ccc(C3CCCCC3)cc2)C1	hepatocyte stability	cryopreserved rat hepatocytes	1 µM	–	hepatic clearance	32 mL/min/kg
O=C(OC(C(F)(F)F)C(F)(F)F)N1CCN(Cc2cccc(Oc3ccccc3)c2)CC1	PET	rhesus monkey, striatum	intravenous, 0.03 mg/kg, pretreatment blocking, with: [18F]T-401	–	tracer distribution volume	6.76 mL/cm3
Cn1cc([C@H]2C[C@H]3CSC(N)=N[C@@]3(c3ccc(F)cc3F)CO2)cn1	–	wild-type mouse, brain	subcutaneous, 3 mg/kg, 3 h	–	Aβ42 level	0.64 ng/g
c1ccc(-c2n[nH]cc2-c2ccnc3ccccc23)nc1	kinase binding, competitor, MIB/MS competition, item: KIN2	Candida albicans cell lysate	1 µM	reference: DMSO	log2 fold change	0.887
CC(C)NCC(O)c1ccc(O)c(O)c1 (stereo not shown)	–	ventricular cardiomyocytes, C57BL/6 mouse	dose not given, 0.46 s	–	sarcomere length	1.66 µm
O=C([O-])CN1CCN(CC(=O)[O-])CCN(CC(=O)O)CCN(CC(=O)[O-])CC1.[Gd+3]	–	PBS	0.3 mM, 25 °C, 7 T	–	T1 relaxation time	543 ms
CSCCNc1nc(SCCC(F)(F)F)nc2c1ncn2[C@@H]1O[C@H](COP(=O)(O)OP(=O)(O)C(Cl)(Cl)P(=O)(O)O)[C@@H](O)[C@H]1O	light transmittance aggregometry	human patients, platelet-rich plasma	dose not given, 3 h, with: ADP 20 µM	–	inhibition of platelet aggregation	18.7 ± 20.2%
CC(c1cc2ccccc2s1)N(O)C(N)=O (stereo not shown)	item: LTB4	human whole blood	3 µM, with: Escherichia coli	–	amount	207 ± 164 pg/mL blood
N#Cc1ccc(Oc2ccc3c(c2)COB3O)cc1	–	Balb/c mice, oxazolone atopic dermatitis	day 8, unit not given	reference: vehicle	ear thickness difference	-0.119
CC[C@H](C)[C@H](NC(=O)[C@H](Cc1ccccc1)NC(=O)[C@H](CCC(=O)O)NC(=O)[C@H](CCCCN)NC(=O)[C@H](C)NC(=O)[C@H](C)NC(=O)[C@H](CCC(N)=O)NC(=O)CNC(=O)[C@H](CCC(=O)O)NC(=O)[C@H](CC(C)C)NC(=O)[C@H](Cc1ccc(O)cc1)NC(=O)[C@H](CO)NC(=O)[C@H](CO)NC(=O)[C@@H](NC(=O)[C@H](CC(=O)O)NC(=O)[C@H](CO)NC(=O)[C@@H](NC(=O)[C@H](Cc1ccccc1)NC(=O)[C@@H](NC(=O)CNC(=O)[C@H](CCC(=O)O)NC(=O)C(C)(C)NC(=O)[C@@H](N)Cc1cnc[nH]1)[C@@H](C)O)[C@@H](C)O)C(C)C)C(=O)N[C@@H](C)C(=O)N[C@@H](Cc1c[nH]c2ccccc12)C(=O)N[C@@H](CC(C)C)C(=O)N[C@H](C(=O)N[C@@H](CCCNC(=N)N)C(=O)NCC(=O)N[C@@H](CCCNC(=N)N)C(=O)NCC(=O)NCC(=O)NCC(=O)NCC(=O)N[C@@H](CO)C(=O)NCC(=O)NCC(=O)NCC(=O)NCC(=O)N[C@@H](CO)C(=O)NCC(=O)NCC(=O)NCC(=O)NCC(=O)N[C@@H](CO)C(=O)NCC(=O)N[C@@H](CSC1CC(=O)N(CCC(=O)NCC(=O)NCCOCCOCCOCCOCCC(=O)N[C@@H](CCCCNC(=O)CC[C@H](NC(=O)CCCCCCCCCCCCCCCCCCC(=O)O)C(=O)O)C(=O)NCCOCCOCCOCCOCCC(=O)N[C@@H](CCCCNC(=O)CC[C@H](NC(=O)CCCCCCCCCCCCCCCCCCC(=O)O)C(=O)O)C(=O)O)C1=O)C(=O)O)C(C)C (stereo partly shown)	–	db/db mouse	subcutaneous, 100 nmol/kg single, 0 to 96 h	reference: baseline	blood glucose AUC(0-96)	7270 ± 1010%
C[C@@H](NC(=O)N1C(=O)[C@H](Cc2ccnc(N)c2)[C@H]1C(=O)O)C1CCCCC1	–	human	iv infusion, 2.25 mg/kg/h, 24 h	reference: baseline	time to aPTT Emax	96 h

Some of these lines once more:
SMILES	test	system	setting	how to read	endpoint	result
Cc1cn(-c2ccc3n(c2=O)CCN([C@@H](C)[C@@H]2CC[C@H](c4cc(F)c(Cl)cc4C(F)(F)F)O2)C3=O)cn1	item: Aβ42	human, cerebrospinal fluid	300 mg single dose, Tmax	reference: placebo-adjusted baseline	change in CSF level	-38.9%
C=CCn1c(=O)c2cnc(Nc3ccc(N4CCN(C)CC4)cc3)nc2n1-c1ccc2c(n1)[C@@](O)(CC)CC2	–	A-427 xenograft, NOD/SCID mouse	80 mg/kg once daily	–	tumour growth inhibition	133%
CC#Cc1cncc(-c2ccc3c(c2)[C@@]2(N=C(C)C(N)=N2)[C@]2(CC[C@H](OC)CC2)C3)c1	brain Aβ40 reduction, PK/PD model	C57BL/6 mouse	oral, free brain concentration basis	–	IC50	0.6 nM
Cc1[nH]c(/C=C2\C(=O)Nc3ccc(F)cc32)c(C)c1C(=O)NCCN1CCCC1	RECIST	dogs with lung metastatic osteosarcoma	dose not given, single agent	–	clinical benefit rate	17.6%
CCCCOc1nc(N)c2c(n1)N(Cc1cccc(CN3CCCC3)c1)CC(=O)N2	qPCR	human, blood	dose not given, three dosing periods	reference: baseline	ISG15 mRNA level	increased
